{"data": "Measured values gathered from unrelated publications", "note": "Each numbered part is a random draw from the data of one study; scales do not carry over between parts."}
{"data": "Sample 1", "target": "Histone acetyltransferase KAT6A, both winged helices, GST fusion (KAT6A, Homo sapiens, UniProt Q92794, residues 1-181)", "technique": "protein binding microarray", "form": "double-stranded DNA, one strand shown", "medium": "in vitro", "tested at": "not given", "setting": "8-mer, flanks averaged, mean of 2 arrays, mostly near background", "relative to": "not given", "direction": "higher = stronger binding", "Residues (chain)": "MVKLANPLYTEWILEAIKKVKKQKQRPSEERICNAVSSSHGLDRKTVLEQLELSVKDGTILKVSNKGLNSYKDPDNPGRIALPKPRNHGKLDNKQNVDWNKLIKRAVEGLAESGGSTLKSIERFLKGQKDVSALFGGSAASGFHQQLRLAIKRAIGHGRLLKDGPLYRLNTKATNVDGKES"}
{"Sequence": "TACTAAAA", "E-score": -0.0169}
{"Sequence": "GGCCTAGA", "E-score": -0.0771}
{"Sequence": "CCCGTAAG", "E-score": 0.118}
{"Sequence": "ACAAATAT", "E-score": -0.119}
{"Sequence": "ACTCTACT", "E-score": -0.13}
{"Sequence": "GAGCCATA", "E-score": -0.111}
{"Sequence": "CACCAGCC", "E-score": 0.0199}
{"Sequence": "AAGGGGAT", "E-score": -0.257}
{"data": "Sample 2", "target": "Interferon regulatory factor 7, full length, phosphomimetic (IRF7, Homo sapiens, UniProt Q92985, residues 1-503, S471D/S472D/S475D/S476D/S477D/S483D/S484D/S487D)", "technique": "protein-binding microarray", "form": "double-stranded DNA, one strand shown", "medium": "in vitro", "tested at": "2200 nM top", "setting": "60-bp whole probe", "together with": "salmon DNA 0.4 mg/ml", "relative to": "random background probes", "direction": "higher = stronger binding", "shared flanks, not repeated": "GCCTAGCAC … GTCTTGATTCGCTTGACGCTGCTG", "Residues (chain)": "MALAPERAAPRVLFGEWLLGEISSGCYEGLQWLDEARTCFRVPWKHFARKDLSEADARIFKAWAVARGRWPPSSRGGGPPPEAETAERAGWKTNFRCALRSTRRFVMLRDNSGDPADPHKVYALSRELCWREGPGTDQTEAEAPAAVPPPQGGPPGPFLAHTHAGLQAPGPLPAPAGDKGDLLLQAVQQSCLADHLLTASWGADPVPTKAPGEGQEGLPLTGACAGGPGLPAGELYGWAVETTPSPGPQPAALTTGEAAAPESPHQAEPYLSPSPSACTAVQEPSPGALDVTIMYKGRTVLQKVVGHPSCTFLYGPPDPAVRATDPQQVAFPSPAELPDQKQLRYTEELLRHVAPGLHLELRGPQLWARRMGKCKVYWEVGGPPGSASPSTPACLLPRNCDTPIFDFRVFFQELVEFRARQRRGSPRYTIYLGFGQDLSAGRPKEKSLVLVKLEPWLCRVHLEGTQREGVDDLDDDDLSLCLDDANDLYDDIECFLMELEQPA"}
{"Sequence": "TTAGGACTGGGGTATCGATTAGTGCTA", "fitted relative affinity [z-score]": -0.275}
{"Sequence": "AGAATTTTCATTAACTGTTAGTGCTAG", "fitted relative affinity [z-score]": 0.108}
{"Sequence": "TTAGGTTTCGACAATCGGTTAGTGCTA", "fitted relative affinity [z-score]": 2.14}
{"Sequence": "GAAGATTTCAGTTTCGAGACGTGCTAG", "fitted relative affinity [z-score]": 5.42}
{"Sequence": "GACGATATTGGGTTTCGAGACGTGCTA", "fitted relative affinity [z-score]": 1.64}
{"Sequence": "GACGATGTCAGTTCCGAGACGTGCTAG", "fitted relative affinity [z-score]": 0.476}
{"Sequence": "TGTCATTTTCTCTTATTCTAGTGCTAG", "fitted relative affinity [z-score]": 2.71}
{"Sequence": "TCACTTCTGCATTACAGACTGTGCTAG", "fitted relative affinity [z-score]": 2.19}
{"Sequence": "TTAGGTTTCGGTCTCGGCTAGTGCTAG", "fitted relative affinity [z-score]": 6.54}
{"Sequence": "TTAGGTCTCGGGTTCGGTTAGTGCTAG", "fitted relative affinity [z-score]": 1.35}
{"data": "Sample 3", "target": "RING finger protein unkempt homolog, zinc fingers 1-6, GST-SBP tag (UNK, Homo sapiens, UniProt Q9C0B0, residues 30-357)", "technique": "RNA Bind-n-Seq", "form": "RNA", "medium": "in vitro", "tested at": "not given", "setting": "RNA with constant flanks, human-mouse chimeric sites, ends assumed", "relative to": "input RNA pool", "direction": "higher = stronger binding", "UniProt Q9C0B0, sequence (30-357, looked up)": "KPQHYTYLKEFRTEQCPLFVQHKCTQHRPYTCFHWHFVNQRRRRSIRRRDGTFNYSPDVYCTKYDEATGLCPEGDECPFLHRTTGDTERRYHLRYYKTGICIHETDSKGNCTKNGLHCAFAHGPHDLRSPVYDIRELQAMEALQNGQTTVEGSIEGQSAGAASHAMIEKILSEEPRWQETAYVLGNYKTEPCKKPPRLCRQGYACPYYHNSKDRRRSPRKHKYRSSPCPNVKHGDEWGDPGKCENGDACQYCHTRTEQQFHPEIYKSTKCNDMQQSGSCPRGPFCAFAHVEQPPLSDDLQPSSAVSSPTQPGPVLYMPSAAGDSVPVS"}
{"Sequence": "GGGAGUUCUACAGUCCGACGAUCCUCGGCACCGGCACGCUUUACAUCGCGGAGAGCCGCCUGUCUUGGUUAGAUGGUUCGGGAUUAGGAUUCUCACUGGAAUACCCCACCAUUAGUUUACAUGCAUUAUCCAGGGAUCCAAACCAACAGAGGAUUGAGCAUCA", "bound/input enrichment": "2.05 ratio"}
{"Sequence": "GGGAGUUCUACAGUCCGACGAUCUUGAAAAACACAGAUAUCAAAGUUGUUGACUUUGGAAGUGCAACGUAUGAUGAUGAACAUCACAGUACUUUGGUGUCUACCCGGCACUACAGAGCUCCAGAGGUCAUUUUGGCUUUAGGUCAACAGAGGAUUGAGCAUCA", "bound/input enrichment": "0.35 ratio"}
{"Sequence": "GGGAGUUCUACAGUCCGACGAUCAUAAAGGCUAUGUUGAGUGGUCCAGGUCAGUUUGCUGAGAAUGAAACCAACGAGGUCAAUUUUAGAGAGAUCCCCUCACAUGUGCUAUCGAAAGUAUGCAUGUAUUUUACCUACAAGGUCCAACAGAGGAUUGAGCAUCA", "bound/input enrichment": "0.184 ratio"}
{"Sequence": "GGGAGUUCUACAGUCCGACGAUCGAUCAUGAACCACCAUCAGAAAUGAAGAUGAGAUUACCCAGACGAGCCAAAACAGCUGCGCUACAGAAAAGUAAACUUAACCUUGCAGAGUUCCUUAAAUGAAGAUCAAGUUAAGAGAGCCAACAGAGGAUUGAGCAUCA", "bound/input enrichment": "0.253 ratio"}
{"Sequence": "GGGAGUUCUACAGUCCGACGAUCUAAGUCCUGUGCCAGCAAUUUAUCCCAAAAGUUUUAAAUUCUGGACCAAUAGUGUUUGUUUCCUGAUUAUUGUAUCCAAUACUUUGCCUAGUAUGUAACUCACUCUUCUGGAUAAAUAAACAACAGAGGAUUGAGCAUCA", "bound/input enrichment": "4.83 ratio"}
{"Sequence": "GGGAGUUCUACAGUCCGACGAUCGAAACUAUUCCUAAAGAGGAGAGAGCUGAGAAGGAUGCUCGGAGAUCAUCUCUUGAGAAACAUAGAAAAGAAAAGCCUUUUAAAACCGGGAGAGGCAGAAUUUCCACUCCUGAAAGAAAACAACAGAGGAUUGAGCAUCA", "bound/input enrichment": "0.43 ratio"}
{"Sequence": "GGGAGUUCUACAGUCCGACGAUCCUGGCCUGGCCCUCCCCAGGGGCCUCCUUUCGUAUAGUCACUGCUUCUGCAUCAGAUAUUUUUAGCUGCAACUCCCUGCAGGGUGGGGCACCCAUUUCAGGCAGAAGGUUUUGGUACCCUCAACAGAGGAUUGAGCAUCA", "bound/input enrichment": "1.16 ratio"}
{"Sequence": "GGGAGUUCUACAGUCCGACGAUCGAGUCGAGCAAACUUGAAACAAUUCGUUAUCUUGCAGCCUCAGUGUUCACUUGCUUGGCGAUAGCAUAUUGGGAUUUUAGGUUCUGGGGAAGUAGUAGACGAUGAUGCUGCCGCUGCUGCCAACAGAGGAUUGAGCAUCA", "bound/input enrichment": "3.64 ratio"}
{"data": "Other studies, line by line"}
{"Molecule": "PhoQ, residues 284 288 289 292 302 303 ASHLAV", "target": "PhoP, residues 12 14 15 18 19 HHYTI (Escherichia coli, UniProt P23836)", "test": "Sort-seq, measured: YFP reporter", "system": "E. coli", "conditions": "PhoQ-PhoP variant library, together with: 10 µM Mg2+", "scale": "relative to: high Mg2+ state, higher = stronger signaling", "quantity": "fold induction", "result": 0.683}
{"note": "A few entries again (sample 2):"}
{"Sequence": "TTAGGACTGGGGTATCGATTAGTGCTA", "fitted relative affinity [z-score]": -0.275}
{"Sequence": "AGAATTTTCATTAACTGTTAGTGCTAG", "fitted relative affinity [z-score]": 0.108}
{"Sequence": "TTAGGTTTCGACAATCGGTTAGTGCTA", "fitted relative affinity [z-score]": 2.14}
{"Sequence": "GAAGATTTCAGTTTCGAGACGTGCTAG", "fitted relative affinity [z-score]": 5.42}
